Measurements gathered from unrelated publications.
Compare with care: the assays were run in different laboratories. Values joined by “and” are separate records of one study, mostly repeats; a detail may differ. ± marks the error that the study gave.

SMILES | cell line | test | test system | setting | how to read | endpoint | result
Cc1ncsc1-c1ccc(C(C)NC(=O)C2CC(O)CN2C(=O)C(NC(=O)CCCCCCCCCCN2CCCC(Nc3ncc(Cl)c(Nc4ccccc4S(=O)(=O)C(C)C)n3)C2)C(C)(C)C)cc1 (stereo not drawn) | 22Rv1 | RNA-seq, item: NBPF20 mRNA | – | concentration not given | baseline: DMSO | log2 fold change | -2.31
O=C(C[Se]C(=O)c1cc2ccccc2[nH]1)Nc1cccc(C(F)(F)F)c1 | NCI60 renal subpanel | cell growth, inhibitor | – | five-dose | – | GI50 | 1.69 µM
CN(C)CCN1CCN(c2ccc3nc(-c4ccc5nc(-c6ccc(C(F)(F)F)cc6)[nH]c5c4)[nH]c3c2)CC1 | SNB-75 | SRB | – | 10 µM, 48 h | – | growth percent | 38.8%
CCCC[C@H](NC(=O)[C@H](CC(C)C)NC(=O)[C@H](CO)NC(=O)[C@H](CO)NC(=O)[C@H](C)NC(=O)[C@H](CO)NC(=O)[C@H](C)N)C(=O)N[C@@H](CC(=O)O)C(=O)N[C@@H](CCCCN)C(=O)N[C@@H](CCC(=O)O)C(=O)N[C@@H](C)C(=O)N[C@H](C(=O)N[C@@H](Cc1ccc(O)cc1)C(=O)N[C@@H](Cc1ccccc1)C(=O)N[C@@H](C)C(=O)N[C@@H](Cc1c[nH]cn1)C(=O)N[C@@H](CC(C)C)C(=O)N[C@@H](CC(=O)O)C(=O)N[C@H](C(=O)N[C@H](C(=O)N[C@@H](Cc1c[nH]c2ccccc12)C(=O)O)[C@@H](C)CC)[C@@H](C)CC)C(C)C | COS-7 ETBR-GFP | calcium flux, agonist | – | ETBR/ETAR ratio 1:0 | – | Emax | 103 ± 6%
O=C(NCc1ccc(OC(F)(F)F)cc1)[C@H]1CCCN(c2ncnc3[nH]c(-c4cccnc4)cc23)C1 | NCI-H2228 | cell growth or viability, MTT | – | 0.2 µg/mL, 72 h | – | inhibition | 58.4%
CCN(CC)CCCNC(=O)CSc1c2c(nc3cc(Cl)ccc13)CCCC2 | LDR | silenced CMV-GFP reporter derepression, qHTS | – | – | – | efficacy | 63%
O=C(NCc1ccc(OC(F)(F)F)cc1)[C@H]1CCCN(c2ncnc3[nH]c(-c4ccc(N5CCOCC5)cc4)cc23)C1 | NCI-H2228 | cell growth or viability, MTT | – | 1 µg/mL, 72 h | – | inhibition | 71.4%
CCN(CC)CC(=O)Nc1cccc(-n2cc(-c3ccc4ccc(-c5cn(-c6cccc(NC(=O)CN(CC)CC)c6)nn5)cc4c3)nn2)c1 | RCC4 | PCR angiogenesis array, item: TIMP3 | – | 5 x IC50, 6 h, normoxia | baseline: untreated | fold regulation | 1.41 fold
Cc1cc(NC2CCN(C)CC2)ccc1-c1cc2c(N3CCC[C@H](C(=O)N4CCCCC4)C3)ncnc2[nH]1 | NCI-H2228 | cell growth or viability, MTT | – | 5 µg/mL, 72 h | – | inhibition | 89.8%
COC(=O)c1cc(NC2=NC(=O)C(=Cc3ccc(N(C)C)cc3)S2)ccc1OC(C)=O | MCF7 | GC-MS, item: Phosphoric acid | – | 1 µM | baseline: DMSO | metabolite level | 0.1 fold change
COc1ccccc1-c1ccncc1C(=O)Nc1ccc(OCc2ccc(Cl)cc2)nn1 | DLD-1 BRCA2-/- | – | – | 5 µM, mean of 3 replicates | baseline: untreated | colony survival | 99.3%
CNS(=O)(=O)Nc1nccc(Cc2c(C)c3ccc(Oc4ncccc4F)cc3oc2=O)c1F | NCI-H2347 | cell viability | – | 7 days | – | IC50 | 0.00831 µM
CCCCCCCCCCCC(=O)N[C@H](CO)C[C@@H](O)c1ccccc1 | HeLa | HPLC-MS/MS | – | 1 µM, 24 h | – | HexCer 16 level | 23500 pmol/sample and 25500 pmol/sample and 22900 pmol/sample
COc1cc(N2CCN(C(=O)C3CCCN3)CC2)ccc1Nc1ncc(Cl)c(Nc2ccccc2P(C)(C)=O)n1 (stereo not drawn) | Ba/F3 EML4-ALK | annexin V flow cytometry | – | concentration not given, 0.5 h | – | early apoptotic cells | 3.3%
CN1CCCNC(=O)c2cccc(c2)C(=O)NCCCN(C)CCCNc2cccc3c2C(=O)c2cccc(c2C3=O)NCCC1 | SAS | RNA-seq, item: LMLN-AS1 mRNA | – | 1 µM, 6 h | baseline: untreated cells | log2 fold change | 2.38
CCC(=O)N1CCN(c2ccc(NC(=O)c3ccc([N+](=O)[O-])o3)cc2Cl)CC1 | LDR | silenced CMV-GFP reporter derepression, qHTS | – | – | – | EC50 | 1.58 µM
Cc1cc(N)ccc1-c1cc2c(N3CCC[C@H](C(=O)NCc4ccc(OC(F)(F)F)cc4)C3)ncnc2[nH]1 | NCI-H2228 | cell growth or viability, MTT | – | 0.008 µg/mL, 72 h | – | inhibition | 42.4%
CCN(C(=O)c1cc(F)ccc1Oc1nncnc1N1CCC2(C1)CN([C@H](CCCN(C)CCOC)C(C)C)C2)C(C)C | SK-LMS-1 | – | uterus | 168 h | – | GI50 | > 10 µM

Excerpt of the above:
SMILES | cell line | test | test system | setting | how to read | endpoint | result
O=C(NCc1ccc(OC(F)(F)F)cc1)[C@H]1CCCN(c2ncnc3[nH]c(-c4cccnc4)cc23)C1 | NCI-H2228 | cell growth or viability, MTT | – | 0.2 µg/mL, 72 h | – | inhibition | 58.4%
